Measured values of several laboratories.
Numbered parts are unrelated; each lists some results of a single study. Values joined by “and” are separate records of one study, mostly repeats; a detail may differ. pEC50: −log10 of the molar value.
Chain of UniProt P08581 (whole entry, looked up): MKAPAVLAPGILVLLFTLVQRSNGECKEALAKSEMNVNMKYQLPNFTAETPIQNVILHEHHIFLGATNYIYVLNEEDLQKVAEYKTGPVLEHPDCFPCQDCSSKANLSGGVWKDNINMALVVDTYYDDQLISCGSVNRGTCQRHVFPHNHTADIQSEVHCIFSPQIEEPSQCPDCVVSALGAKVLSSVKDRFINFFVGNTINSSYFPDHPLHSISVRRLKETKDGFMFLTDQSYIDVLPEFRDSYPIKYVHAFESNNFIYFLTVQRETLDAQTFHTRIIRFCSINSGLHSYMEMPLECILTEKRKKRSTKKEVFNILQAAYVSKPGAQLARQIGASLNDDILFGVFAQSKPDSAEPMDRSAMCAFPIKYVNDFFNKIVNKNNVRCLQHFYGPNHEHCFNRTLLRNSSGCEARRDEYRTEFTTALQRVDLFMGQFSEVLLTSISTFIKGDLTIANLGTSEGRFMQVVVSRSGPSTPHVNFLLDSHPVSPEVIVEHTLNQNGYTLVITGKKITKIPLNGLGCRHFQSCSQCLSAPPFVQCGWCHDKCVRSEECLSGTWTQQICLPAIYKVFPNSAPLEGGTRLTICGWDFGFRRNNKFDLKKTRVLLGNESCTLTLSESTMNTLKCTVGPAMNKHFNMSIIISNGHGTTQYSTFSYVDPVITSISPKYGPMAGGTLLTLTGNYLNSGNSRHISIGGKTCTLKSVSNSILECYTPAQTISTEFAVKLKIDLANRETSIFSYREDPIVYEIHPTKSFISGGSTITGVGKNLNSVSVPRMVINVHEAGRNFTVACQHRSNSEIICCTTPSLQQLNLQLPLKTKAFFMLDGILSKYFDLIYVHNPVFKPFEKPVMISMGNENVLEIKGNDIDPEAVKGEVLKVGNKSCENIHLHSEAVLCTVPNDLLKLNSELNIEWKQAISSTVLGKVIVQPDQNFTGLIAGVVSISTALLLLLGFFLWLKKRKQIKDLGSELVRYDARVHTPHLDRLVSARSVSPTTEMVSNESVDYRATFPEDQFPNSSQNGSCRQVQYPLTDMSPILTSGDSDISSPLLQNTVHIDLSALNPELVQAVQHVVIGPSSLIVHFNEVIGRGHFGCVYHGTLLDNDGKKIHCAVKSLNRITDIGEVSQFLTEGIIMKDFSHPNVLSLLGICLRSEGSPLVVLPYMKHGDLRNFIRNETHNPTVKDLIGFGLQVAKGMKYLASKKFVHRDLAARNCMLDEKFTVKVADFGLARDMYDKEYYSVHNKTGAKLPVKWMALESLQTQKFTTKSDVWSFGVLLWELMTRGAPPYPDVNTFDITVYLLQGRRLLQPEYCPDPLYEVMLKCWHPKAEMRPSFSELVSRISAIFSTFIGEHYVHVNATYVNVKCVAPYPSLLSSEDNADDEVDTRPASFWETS
Chain of UniProt O76039 (whole entry, looked up): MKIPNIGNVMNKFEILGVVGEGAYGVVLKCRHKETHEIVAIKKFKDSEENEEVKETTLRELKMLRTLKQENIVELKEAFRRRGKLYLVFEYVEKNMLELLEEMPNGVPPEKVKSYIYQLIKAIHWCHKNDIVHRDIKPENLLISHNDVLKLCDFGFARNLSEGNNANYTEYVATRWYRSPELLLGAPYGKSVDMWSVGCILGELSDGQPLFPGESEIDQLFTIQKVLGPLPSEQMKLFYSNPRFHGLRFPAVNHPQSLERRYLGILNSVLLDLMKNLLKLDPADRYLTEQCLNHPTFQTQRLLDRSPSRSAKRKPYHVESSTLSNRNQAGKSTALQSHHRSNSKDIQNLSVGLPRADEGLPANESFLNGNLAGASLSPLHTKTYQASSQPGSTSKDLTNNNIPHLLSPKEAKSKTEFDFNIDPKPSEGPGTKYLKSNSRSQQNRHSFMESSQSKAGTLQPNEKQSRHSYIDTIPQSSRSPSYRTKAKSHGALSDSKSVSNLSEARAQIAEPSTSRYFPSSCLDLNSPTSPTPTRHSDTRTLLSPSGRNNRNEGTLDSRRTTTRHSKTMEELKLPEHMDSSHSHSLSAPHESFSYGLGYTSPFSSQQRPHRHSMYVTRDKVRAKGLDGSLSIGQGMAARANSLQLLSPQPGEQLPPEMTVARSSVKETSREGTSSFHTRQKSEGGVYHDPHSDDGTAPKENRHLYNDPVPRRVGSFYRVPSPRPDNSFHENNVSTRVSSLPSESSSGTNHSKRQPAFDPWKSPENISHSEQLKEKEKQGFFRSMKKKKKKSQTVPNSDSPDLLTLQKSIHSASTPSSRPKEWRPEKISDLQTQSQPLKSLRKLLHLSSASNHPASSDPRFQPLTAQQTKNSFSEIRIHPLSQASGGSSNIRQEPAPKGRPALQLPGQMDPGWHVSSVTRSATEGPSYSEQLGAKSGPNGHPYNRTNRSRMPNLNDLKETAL
Chain of UniProt O95747 (whole entry, looked up): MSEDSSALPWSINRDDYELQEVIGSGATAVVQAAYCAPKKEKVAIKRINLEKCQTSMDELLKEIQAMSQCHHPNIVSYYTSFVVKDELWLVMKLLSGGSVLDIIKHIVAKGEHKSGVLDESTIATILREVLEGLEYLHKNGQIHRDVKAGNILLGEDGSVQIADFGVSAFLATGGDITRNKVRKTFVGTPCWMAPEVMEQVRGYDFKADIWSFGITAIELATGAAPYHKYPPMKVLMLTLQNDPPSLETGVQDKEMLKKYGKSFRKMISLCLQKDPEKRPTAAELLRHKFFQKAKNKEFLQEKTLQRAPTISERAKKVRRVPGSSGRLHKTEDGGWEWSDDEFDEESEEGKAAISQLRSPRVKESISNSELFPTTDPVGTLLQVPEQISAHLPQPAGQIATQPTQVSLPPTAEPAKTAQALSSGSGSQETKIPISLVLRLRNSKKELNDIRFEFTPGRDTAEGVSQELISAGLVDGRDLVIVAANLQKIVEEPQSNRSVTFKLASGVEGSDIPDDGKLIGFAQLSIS

Block 1 — effect on: enzyme activity; mode: inhibitor; tested at: 0.5 µM; relative to: control; endpoint: remaining activity
Target: Cyclin-dependent kinase 1, with cyclin B (CDK1, Homo sapiens, UniProt P06493)
Chain of UniProt P06493 (whole entry, looked up): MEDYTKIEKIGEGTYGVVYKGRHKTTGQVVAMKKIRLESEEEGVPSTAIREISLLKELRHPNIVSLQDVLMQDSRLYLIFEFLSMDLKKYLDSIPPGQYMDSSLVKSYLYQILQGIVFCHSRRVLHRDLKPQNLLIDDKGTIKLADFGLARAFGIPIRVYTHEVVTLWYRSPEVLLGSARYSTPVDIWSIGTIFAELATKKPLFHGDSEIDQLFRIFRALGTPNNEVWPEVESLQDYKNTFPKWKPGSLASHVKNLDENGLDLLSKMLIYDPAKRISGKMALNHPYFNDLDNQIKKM
Cn1sc(=O)n(Cc2ccccc2)c1=O: 95.7%
Cc1ccc(Nc2nccc(N(C)c3ccc4c(C)n(C)nc4c3)n2)cc1S(N)(=O)=O: 99.6%
Cc1nc(-c2ccccc2)c(-c2ccncc2)o1: 90.8%
O=C(Nc1cccc(Nc2cc(Nc3cccc(C(F)(F)F)c3)ncn2)c1)C1CC1: 96.4%
O=c1c2ccccc2[nH]c(=S)n1CCN1CCC(=C(c2ccc(F)cc2)c2ccc(F)cc2)CC1: 83%
COc1ccc(CNC(=O)Nc2ncc([N+](=O)[O-])s2)cc1: 85.1%
CN(C)c1ccc(C=C2C(=O)Nc3ccccc32)cc1: 94.1%
O=C1NC(=O)C(c2cn(CCCn3ccnc3)c3ccccc23)=C1Nc1ccccc1: 84.9%
Cn1c2ccccc2c2c3c(c4c5ccccc5n(CCC#N)c4c21)CNC3=O: 38.7%
COc1ccc(OC)c2c(=S)c3ccccc3[nH]c12: 97.8%
CNC(=O)c1cc(Oc2ccc(NC(=O)Nc3ccc(Cl)c(C(F)(F)F)c3)cc2)ccn1: 98.5%
N#CC(C#N)=C(N)/C(C#N)=C/c1ccc(O)cc1: 111%
O=C1NC(=O)C(c2cn(CCCO)c3ncccc23)=C1c1cnccn1: 81.1%
COc1cc2nccc(Oc3ccc(NC(=S)NC(=O)c4ccccc4C)cc3)c2cc1OC: 90.7%
COc1ccc(C(=O)Nc2sc3c(c2C(N)=O)CCCC3)cc1OC: 94.3%

Block 2 — method: competition with immobilised ligand; tested at: 0.1 µM; endpoint: remaining binding
SMILES: O=C(NCCCC1CCCCC1)c1ccc(CNC(=O)c2cnn(-c3ccccc3)c2C(F)(F)F)cc1
Myosin-IIIb (MYO3B, Homo sapiens, UniProt Q8WXR4); binding: 100%
AXL (Homo sapiens, UniProt P30530); cell-free assay: 95%
PIK3CA (Homo sapiens, UniProt P42336, E542K); cell-free assay: 74%
EPHB6 (Homo sapiens, UniProt O15197); cell-free assay: 100%
RET (Homo sapiens, UniProt P07949, V804M); cell-free assay: 100%
IGF1R (Homo sapiens, UniProt P08069); cell-free assay: 100%
CDKL5 (Homo sapiens, UniProt O76039); cell-free assay: 100%
OXSR1 (Homo sapiens, UniProt O95747); cell-free assay: 91%
EGFR (Homo sapiens, UniProt P00533); cell-free assay: 100%
MET (Homo sapiens, UniProt P08581); cell-free assay: 100%
EIF2AK2 (Homo sapiens, UniProt P19525); cell-free assay: 64%
HASPIN (Homo sapiens, UniProt Q8TF76); cell-free assay: 100%
KIT (Homo sapiens, UniProt P10721, D816V); cell-free assay: 100%
MAPK12 (Homo sapiens, UniProt P53778); cell-free assay: 100%
CAMK2A (Homo sapiens, UniProt Q9UQM7); cell-free assay: 100%
NEK1 (Homo sapiens, UniProt Q96PY6); cell-free assay: 58%
PIP4K2C (Homo sapiens, UniProt Q8TBX8); cell-free assay: 99%

Block 3 — mode: agonist; endpoint: pEC50
Target: Beta-1 adrenergic receptor (ADRB1, Homo sapiens, UniProt P08588)
Chain of UniProt P08588 (whole entry, looked up): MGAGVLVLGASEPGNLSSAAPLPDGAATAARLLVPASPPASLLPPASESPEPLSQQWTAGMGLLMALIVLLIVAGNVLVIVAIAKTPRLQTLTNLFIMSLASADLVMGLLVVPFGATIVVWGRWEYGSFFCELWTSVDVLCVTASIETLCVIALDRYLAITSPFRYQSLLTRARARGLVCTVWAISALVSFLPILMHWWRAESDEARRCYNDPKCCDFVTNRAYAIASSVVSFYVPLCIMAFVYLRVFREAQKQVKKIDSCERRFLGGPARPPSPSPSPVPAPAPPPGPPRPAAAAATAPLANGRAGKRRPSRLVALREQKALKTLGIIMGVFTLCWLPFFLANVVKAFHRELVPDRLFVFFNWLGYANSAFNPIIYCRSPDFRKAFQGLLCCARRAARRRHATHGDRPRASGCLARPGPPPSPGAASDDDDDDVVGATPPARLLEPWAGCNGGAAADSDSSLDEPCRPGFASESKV
O=S(=O)(O)c1cc(I)c(O)c2ncccc12: ≤ 4.00
Cn1c(=O)n(-c2ccc(N3CCN(C(=O)OC(C)(C)C)CC3)c(C(F)(F)F)c2)c2c3cc(-c4cncc(Cl)c4)ccc3ncc21: ≤ 4.00
N#CSCC(=O)c1ccc(O)c(O)c1: ≤ 4.00
COc1ccccc1N1CCN([S+](=O)([O-])c2ccc(Cl)c(C)c2)CC1: ≤ 4.00
Cc1cn([C@@H]2O[C@H](CO)[C@@H](O)[C@H]2O)c(=O)[nH]c1=O: ≤ 4.00
O=C(Nc1cc(-c2ccccn2)nn1-c1ccccc1)c1ccc2ccccc2n1: ≤ 4.00

Block 4 — cell line: mouse MPNST tumor cells; method: high-content nuclear imaging; item: cell number; tested at: 10 µM; time: 12 h; setting: mean of 2 replicates; relative to: plate mean; reading: higher = more cells; endpoint: nuclei count
Cc1ccccc1C(=O)Nc1ccc(C(=O)N2CCCC(O)c3cc(Cl)ccc32)c(C)c1 (stereo not drawn): 6.37 z-score and 4.65 z-score and 1.7 z-score
Cc1cc(C)c(S(=O)(=O)N(Cc2ccc(-c3cccc(S(C)(=O)=O)c3)cc2)Cc2ccc(C(F)(F)F)o2)c(C)c1: 1.69 z-score
CCC(=O)O[C@]1(C(=O)CCl)[C@@H](C)C[C@H]2[C@@H]3CCC4=CC(=O)C=C[C@]4(C)[C@@]3(F)[C@@H](O)C[C@@]21C: 5.22 z-score
COc1cc(N2CCN(C(C)=O)CC2)ccc1Nc1ncc(Cl)c(Nc2ccc(N3CCN(C(C)=O)CC3)cc2OC)n1: -1.35 z-score
N#Cc1ccc(NC(=O)Nc2ccccc2Br)c2n[nH]nc12: -1.34 z-score
Cc1cccc(S(=O)(=O)N(C)[C@H](C)CCN2CCC(C)CC2)c1: -0.339 z-score
CNCC[C@@H](Oc1ccccc1C)c1ccccc1: 1.14 z-score

For quick reference, copied from above (block 2):
NEK1 (Homo sapiens, UniProt Q96PY6); cell-free assay: 58%
MET (Homo sapiens, UniProt P08581); cell-free assay: 100%
EGFR (Homo sapiens, UniProt P00533); cell-free assay: 100%
PIP4K2C (Homo sapiens, UniProt Q8TBX8); cell-free assay: 99%
OXSR1 (Homo sapiens, UniProt O95747); cell-free assay: 91%
CAMK2A (Homo sapiens, UniProt Q9UQM7); cell-free assay: 100%
KIT (Homo sapiens, UniProt P10721, D816V); cell-free assay: 100%
